# Experimental data collected from several papers.
# A part holds a random share of what one study measured. Substitutions count along the parent as printed.

# Set 1
# Target: CCND2, cyclin fold, Cln2 fusion (human)
# Technique: yeast growth competition, sequencing
# Medium: yeast
# Setting: weak parent motif
# Relative to: not given
# Reading: higher = stronger binding
# Starting sequence: GMNC docking peptide (human); KNAKRNLSSEFAN
Substitution,normalised enrichment score
KNAKRNLSSWFAN [E10W],0.22
KNAKRNLSSEDAN [F11D],0.22
KNAKRNLSSEEAN [F11E],-0.0554
KFAKRNLSSEFAN [N2F],0.387
KNAKRNRSSEFAN [L7R],-0.183
KNAKRNLSSAFAN [E10A],0.13
KNAKRNLSMEFAN [S9M],0.246
KNAKRNLSWEFAN [S9W],0.229
KYAKRNLSSEFAN [N2Y],0.255
KNAKRNLSSEFHN [A12H],-0.00363
KNAKRNWSSEFAN [L7W],-0.0272
KLAKRNLSSEFAN [N2L],0.0238
KNAKRNLCSEFAN [S8C],-0.268
KQAKRNLSSEFAN [N2Q],0.173
KNAKRNLLSEFAN [S8L],0.422

# Set 2
# Target: Interferon regulatory factor 7, full length, phosphomimetic (IRF7, Homo sapiens, UniProt Q92985, residues 1-503, S101K/S471D/S472D/S475D/S476D/S477D/S483D/S484D/S487D)
# Sequence of UniProt Q92985 (whole entry, unmodified, looked up): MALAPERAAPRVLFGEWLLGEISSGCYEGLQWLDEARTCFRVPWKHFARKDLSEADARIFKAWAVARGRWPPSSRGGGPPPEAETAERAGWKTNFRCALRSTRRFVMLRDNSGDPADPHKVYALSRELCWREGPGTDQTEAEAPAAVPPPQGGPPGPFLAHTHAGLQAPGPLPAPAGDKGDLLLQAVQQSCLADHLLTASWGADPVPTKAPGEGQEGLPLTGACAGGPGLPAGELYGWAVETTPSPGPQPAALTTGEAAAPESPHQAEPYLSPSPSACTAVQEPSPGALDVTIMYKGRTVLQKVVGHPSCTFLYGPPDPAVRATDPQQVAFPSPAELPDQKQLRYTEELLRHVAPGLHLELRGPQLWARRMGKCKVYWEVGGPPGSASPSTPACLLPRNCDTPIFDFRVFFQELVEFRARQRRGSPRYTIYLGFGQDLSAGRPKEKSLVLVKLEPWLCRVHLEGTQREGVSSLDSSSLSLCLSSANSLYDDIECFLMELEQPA
# Technique: protein-binding microarray
# Molecule type: double-stranded DNA, one strand shown
# Medium: in vitro
# Tested at: 250 nM
# Setting: 60-bp whole probe
# Added: salmon DNA 0.4 mg/ml
# Relative to: random background probes
# Reading: higher = stronger binding
# All sequences stand within: GCCTAGCAC … GTCTTGATTCGCTTGACGCTGCTG
Sequence,log fluorescence [z-score]
GACGGTCTCGGGTTTCGGGACGTGCTA,4.06
GACGGTATCGACTATCGGGTCGTGCTA,0.0202
TCAGATATGCCAAATCTGACTGTGCTA,-0.224
TTAGGACTGGACTATCGGGTAGTGCTA,-0.351
TAAAGCATTACTTTAGGTTCGTGCTAG,0.0564
TTAGGACTGGGGTTTCCGTTAGTGCTA,0.695
TATTTTTTTCTAATTGAAATGTGCTAG,2.21
TAAGGAGGCAGGGATGCTCCGTGCTAG,-0.638
GACGGTATTGACTTTCGGGACGTGCTA,-0.116
ATAGAACTGAGTATCGATTAGTGCTAG,0.729

# Set 3
# Target: ABI1, truncated, D143A, DHFR fusion (Arabidopsis thaliana)
# Technique: DHFR PCA, deep sequencing
# Medium: yeast
# Setting: methotrexate growth selection, single substitutions
# Added: (+)-ABA 2500 µM
# Relative to: wild-type fitted maximum
# Reading: higher = stronger binding
# Starting sequence: PYL1, truncated, DHFR fusion (Arabidopsis thaliana); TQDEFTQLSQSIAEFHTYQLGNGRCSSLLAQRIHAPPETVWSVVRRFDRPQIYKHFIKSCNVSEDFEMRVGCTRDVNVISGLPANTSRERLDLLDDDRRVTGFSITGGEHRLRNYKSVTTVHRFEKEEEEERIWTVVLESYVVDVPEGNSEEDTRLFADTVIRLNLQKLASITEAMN; partner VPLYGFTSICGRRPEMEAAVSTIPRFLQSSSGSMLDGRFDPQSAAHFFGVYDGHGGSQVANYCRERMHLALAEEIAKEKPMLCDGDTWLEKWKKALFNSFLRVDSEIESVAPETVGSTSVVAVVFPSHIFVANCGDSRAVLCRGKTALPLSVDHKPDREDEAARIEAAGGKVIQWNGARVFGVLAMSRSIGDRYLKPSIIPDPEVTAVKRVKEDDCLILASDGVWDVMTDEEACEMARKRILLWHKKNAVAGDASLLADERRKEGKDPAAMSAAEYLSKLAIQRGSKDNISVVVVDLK
Substitution,relative binding score [%]
L112E,1.56
F5E,103
T6G,107
A158S,92.9
R99C,93.3
Q7A,105
D65L,92.8
T1D,89.4
D96L,79.4
V44G,8.24
V121L,102
F103P,1.39
E151C,96.7
N114W,65.3

# Set 4
# Target: PABPC1L2, full length, GST fusion (mouse, UniProt A0ABA7IW68)
# Technique: RNAcompete
# Molecule type: RNA
# Medium: in vitro
# Tested at: 20 nM
# Setting: 7-mer, probes averaged, single round
# Relative to: mean of 7-mers
# Reading: higher = stronger binding
# Construct (chain): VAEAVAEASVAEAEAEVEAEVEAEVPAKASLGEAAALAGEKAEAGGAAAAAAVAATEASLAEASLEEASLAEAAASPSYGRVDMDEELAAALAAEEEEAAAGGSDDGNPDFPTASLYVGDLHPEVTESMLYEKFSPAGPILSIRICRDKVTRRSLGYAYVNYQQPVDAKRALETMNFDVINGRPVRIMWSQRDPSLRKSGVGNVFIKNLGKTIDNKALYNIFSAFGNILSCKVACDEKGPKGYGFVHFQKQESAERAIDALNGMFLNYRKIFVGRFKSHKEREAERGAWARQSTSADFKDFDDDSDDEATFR
Sequence,7-mer Z-score
GCUUAUU,-0.237
ACUCCUA,-0.188
AGAUGUG,-0.121
AAGCGCA,0.258
CCCCCUG,-0.461
AAUGAGA,0.189
ACGGGUG,0.0768
CUCGGGU,-0.0645
CUGCGCC,-0.476
CCUUCCG,-0.393
AAUUCGA,0.269
GUCUUAU,-0.4
CAUCUAG,0.017
GCCCCAC,-0.316
AAAUCAU,0.909
ACUAGCA,-0.0844

# A few entries again (set 2):
Sequence,log fluorescence [z-score]
TAAAGCATTACTTTAGGTTCGTGCTAG,0.0564
TTAGGACTGGGGTTTCCGTTAGTGCTA,0.695
TATTTTTTTCTAATTGAAATGTGCTAG,2.21
TAAGGAGGCAGGGATGCTCCGTGCTAG,-0.638
